Measurements pooled from the literature.
Compare with care: the assays were run in different laboratories. pIC50: −log10 of the molar value.
Target: D(1A) dopamine receptor (DRD1, Homo sapiens, UniProt P21728)
Sequence of UniProt P21728 (whole entry, looked up): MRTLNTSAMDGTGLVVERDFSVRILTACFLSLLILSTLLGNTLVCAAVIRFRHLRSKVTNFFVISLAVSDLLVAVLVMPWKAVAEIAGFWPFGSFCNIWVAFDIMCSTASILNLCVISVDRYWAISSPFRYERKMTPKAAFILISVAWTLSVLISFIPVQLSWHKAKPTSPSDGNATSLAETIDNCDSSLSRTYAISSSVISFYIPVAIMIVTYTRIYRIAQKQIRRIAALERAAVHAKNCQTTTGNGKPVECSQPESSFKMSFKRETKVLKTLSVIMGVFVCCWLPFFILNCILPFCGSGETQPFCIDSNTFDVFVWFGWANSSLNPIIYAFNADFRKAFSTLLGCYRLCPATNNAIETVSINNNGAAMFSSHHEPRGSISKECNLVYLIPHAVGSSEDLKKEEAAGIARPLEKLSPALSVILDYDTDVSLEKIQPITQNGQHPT

C/C(=N\OCCCN1CCCCC1)c1ccc(C(F)(F)F)cc1
activation (agonist, cAMP; 10 µM): 9.51%

Cc1cc(-c2ccc3ccccc3c2)nnc1NCCN1CCN(C)CC1
antagonist activity (antagonist; concentration not given): negative

CCO[C@H]1[C@H](O)[C@@H](N)[C@@H](O[C@H]2[C@H](O[C@@H]3O[C@H](CO)[C@@H](O[C@H]4O[C@@H](CN)[C@@H](O)[C@H](O)[C@H]4N)[C@H]3O)[C@@H](O)[C@H](N)C[C@@H]2N)O[C@@H]1CO
specific binding (radioligand binding; 10 µM, 1% DMSO): -10%

O=C1c2ccccc2CCCN1CCCCN1CCN(c2cccc(Cl)c2Cl)CC1
inhibition (radioligand binding; concentration not given, added: [3H]SCH23390): 89.8%

CCc1nnc(-c2c(OC)cc(-c3cnc4cc(-c5cnn(C)c5)ccn34)cc2OC)o1
remaining binding (antagonist radioligand, radioligand binding; 10 µM, SafetyScreen44 D1 mean; lower = stronger displacement): 93.5%

C[C@@H]1COCCN1c1nc(NCc2cccnc2C(F)(F)F)c2cccnc2n1
pIC50 (binding; CEREP panel): < 4.00

CN[C@@H]1[C@H](O)[C@H](NC)[C@H]2O[C@]3(O)[C@H](O[C@@H]2[C@H]1O)O[C@H](C)C[C@H]3NC(=O)Cc1ccc(Cl)cn1
inhibition (ligand displacement, radioligand; 10 µM): 1%

CCOC(=O)[C@](CC)(CCCSCCOCCOCCNC(=O)c1ccc(-c2c3ccc(=N)c(S(=O)(=O)O)c-3oc3c(S(=O)(=O)O)c(N)ccc23)c(C(=O)O)c1)NC(=O)c1ccc(C2CC2)c(Cc2ccc(F)cc2)n1
inhibition (ligand displacement, radioligand; 10 µM): 10%

Cc1sc2c(c1C)C(c1ccc(Cl)cc1)=NC(CC(=O)OC(C)(C)C)c1nnc(C)n1-2 (stereo not drawn)
remaining binding (ligand displacement, radioligand; 1 µM): 102%

Cc1cc(Nc2nc(C[C@@]3(C(=O)O)CCN(Cc4cccc(Cl)c4F)[C@H](C)C3)cc(C)c2F)[nH]n1
inhibition (inhibitor; 10 µM): 1.44%

Cc1ccc2c(n1)c(-c1cccc(S(C)(=O)=O)c1)c(C)n2C/C(F)=C/CN
inhibition (ligand displacement, radioligand; 10 µM): 6%

N[C@H](C(=O)N1CCCC1)C1CCN(c2nccc3c(-c4ncc(Cl)cc4Cl)cccc23)CC1
response (functional response, agonist; 10 µM): -2%
